Assay results of several laboratories.
Every numbered part comes from another study and shows a few of its results, in no order.

Sample 1 — technique: RNA Bind-n-Seq; molecule type: RNA; sample: in vitro; concentration: 365 nM; baseline: no-protein control; reading: higher = stronger binding; endpoint: RBNS enrichment (R)
Target: RNA binding protein fox-1 homolog 2, RRM domain, GST-SBP tag (RBFOX2, Homo sapiens, UniProt O43251-10, residues 100-194)
Setting: natural RNA segment, single round, ends assumed
All sequences stand within: GGGAGUUCUACAGUCCGACGAUC … UGGAAUUCUCGGGUGCCAA
Residues (chain): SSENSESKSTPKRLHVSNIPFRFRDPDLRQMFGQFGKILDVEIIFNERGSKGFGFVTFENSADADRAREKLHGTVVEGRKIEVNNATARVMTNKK
GGACUUUUCCUGUCACUGUGAACUUUGCUGGUUAUCUGCCUUCAAUUUUUGGACCACAAACCACCCUGCAGCUUCUUAAACCUUUCCCCAACCUACCACCCAAAAGAACC: 0.822
AAAUUUGUAGACUUCUAAAUAGAAUAAACACUUGCAGCAGAUGGCAUUGCCUACAUUUUUCCCUGAAGCUUUCGUAAUAAGUCAUCGUAAGUCGAGGUUUUUGGUGUGAC: 0.737
AUGAAUGGGCAAUGUUGUGUUGAUACGCAGCCGAGUUCUACGUUAUGUGCUGUGACUGUGCAGCUGGACGACCCCCAUCCCCAGGAGGCAGUUUCCAGACAGGAGAGCAA: 0.968
AUUCUGACCCUCGACACCUGAGAGAACCCUAGAAGGACAUUAUUAGCUUGCUGUCAUUUCUGAACCCAGGAUCUGUCAUCAAAUGAAACAUGUUUAAAAAGUGACUCUGA: 0.44
UCAUCGUUGUUGUUGUGCUGACGUCUGGUCAUGUAUUAUUAGUGUGUCUCGUUCUCCACGGUGCUGGAGACCUCAUUACUUUGGAAAACUCACUGUUCCCCAGCACAGCA: 0.969
ACCCAGGGUAGGCUUUCCUUUGGAUCAUCUCCAAAUGGGAGUGCCAUGUGGCAGGAAAGAAGCACCGAUUUCAAGAAUUACUUCCUAGAGAAAGUCAGGAACUAGAGACC: 0.294
UUAGUAACCUCGCCUCUCUUCUUGAACCACACCGGUCUGCCGCUGCUCAGUGCCCCACCAGGCGUGGGCCUGGUCUCAGCGGCGGCUGCAGCCGUAGCAGCAUCCAUCUC: 0.233
UAUAAAUAUUUCCUAGCAAGGAUCAUAAGCCCAAUUUCCGGAUUUGCCCCUCUGAGAAGCAUGAAUGAGCUCACAUUAGUACUGAGAAGUUUGAAGACCAAGAAAUCCUG: 7.05
GCAGGCCACCUCUGGGCAGGACCACCUGCGUCUGGCACCCAGGAGGUGAGGCAGACACCAUGGUUAGGUGAUAGGGUCUGAACCCAGUUGGGGAGACAGAGGGGUUCAGA: 0.647
AAGGAUGAAAUCUCAGAACACAUGUCAGCUGCUUCUCAGGAAAUCUUUUCUUUGGACAAUUCACUUUAGAGUCUUUAAACGGGUCUCUCGUGGGGAGGAUAGAUGUGCUC: 0.408
CUUCCGUUCUAGCCCAGUAUCCCACUUGGACCAGGUAGGCAGAUACUCAAUAAAUGCUUGUUCCAUCAAACAGUGUCUGCAGUGCUGGGUGGGGCCCCGUGAAAUGGCUA: 0.825
ACAUGAGAGACACCGGGAUAGAGAACGGGACCGGCACCAUGAGAAAGGAGUCUGGGUGGAAGCAAAUUGUUUUUAAUGGACUUGCAUCUCCUCACCUUGAUCAGGACUAA: 0.572

Sample 2 — technique: protein-binding microarray; molecule type: double-stranded DNA, one strand shown; sample: in vitro; concentration: 250 nM; setting: 60-bp whole probe; with: salmon DNA 0.4 mg/ml; baseline: random background probes; reading: higher = stronger binding; endpoint: log fluorescence; all sequences stand within: GCCTAGCAC … GTCTTGATTCGCTTGACGCTGCTG
Target: Interferon regulatory factor 5, full length, phosphomimetic (IRF5, Homo sapiens, UniProt Q13568-2, residues 1-514, K96S/S451D/S453D/S456D/S462D)
GACGATTTCCGTCTCGAGACGTGCTAG: 0.682 z-score
TTAGGTCTCCTTATCTTTTAGTGCTAG: 0.252 z-score
TTAGGACTGGCTCTCGGTTAGTGCTAG: -0.114 z-score
GAGCCTCTGTTTTGAGCACAGTGCTAG: -0.0749 z-score
GACGAAATGAGTATCGAGACGTGCTAG: 2.84 z-score
TCTCTTTTCACTTTCTTTACGTGCTAG: 4 z-score
TTAGAACTGAGACTAGATTAGTGCTAG: 0.135 z-score
ATAGGTTTCGGACTGGGTTAGTGCTAG: 4.96 z-score
TTAGGTTTTGACTTTCGGTTAGTGCTA: 9.82 z-score
TTAGGTCTCGGTGTCGGTTAGTGCTAG: 0.619 z-score
GGCGGTTTCGGTATCGGGACGTGCTAG: 10 z-score
GACGGATTGGGGTATCGGGACGTGCTA: 0.112 z-score
TCAGATTTCTCAAACAGACTGTGCTAG: 0.146 z-score
TTACATATCGGGTATCGATTAGTGCTA: 6.18 z-score
GACGATTCCACTTTCGAGACGTGCTAG: 6.86 z-score
GGCGATCTCAGTCTCGAGACGTGCTAG: -0.385 z-score
TTAGGACTACTACTGCTTTAGTGCTAG: -0.114 z-score
TTAAGTTTCCTTATCCTTTAGTGCTAG: 1.87 z-score
TTAGAACTGGTGTTTCGATTAGTGCTA: 6.23 z-score
GACGAACTGAGTTTCGAGGCGTGCTAG: 3.64 z-score
TTAGAACTCAGTTTCGATTAGTGCTAG: 9.59 z-score
TTAGGTATCGGTATCGGGTAGTGCTAG: 8.18 z-score
GACGGTTTCGACCTTCGGGACGTGCTA: 4.68 z-score
TGACAGCAGGAACATGGGCTGTGCTAG: -0.343 z-score
TAAGGTATCGGACTGGGTTAGTGCTAG: 0.697 z-score

Sample 3 — technique: RNA Bind-n-Seq; molecule type: RNA; sample: in vitro; concentration: not given; baseline: input RNA pool; reading: higher = stronger binding; endpoint: bound/input enrichment
Target: RING finger protein unkempt homolog, zinc fingers 1-6, GST-SBP tag (UNK, Homo sapiens, UniProt Q9C0B0, residues 30-357)
UniProt Q9C0B0, sequence (30-357, looked up): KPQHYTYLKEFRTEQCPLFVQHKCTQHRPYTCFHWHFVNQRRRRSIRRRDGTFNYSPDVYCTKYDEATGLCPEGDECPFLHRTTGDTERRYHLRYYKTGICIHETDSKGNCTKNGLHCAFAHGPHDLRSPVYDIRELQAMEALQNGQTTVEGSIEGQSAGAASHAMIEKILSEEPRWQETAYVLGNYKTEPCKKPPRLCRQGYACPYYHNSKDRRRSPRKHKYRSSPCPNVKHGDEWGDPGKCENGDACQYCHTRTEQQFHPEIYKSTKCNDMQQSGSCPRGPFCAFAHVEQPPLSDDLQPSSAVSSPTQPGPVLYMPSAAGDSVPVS
Setting: RNA with constant flanks, human and mouse sites, ends assumed
All sequences stand within: GGGAGUUCUACAGUCCGACGAUC … CAACAGAGGAUUGAGCAUCA
GUUGCCAACUUGAAUAGAAUUAAGUUGAACAGUAAACAGUGUAGAAUAUACCGAGUCCGGAUCAAUGACUUGGAGGCCGCUUUUAUUUAUAAUGAUCCAACCUUAGAAGUUUGUCACAGU: 1.47 ratio
CAUUUGGACCUUACUCAUCCAGUAGAAGAUGGAAUUUUUGACUCUGGAAAUUUUGAACAGUUUCUACGGGAGAAGGUUAAAGUCAAUGGAAAAACUGGAAAUCUUGGCAAUGUUGUUCAC: 0.0874 ratio
AUGGCAACAUCAGAGGCACUUAAAAUUUCAAGAGAGGUAGAUCCAGAUGGUCGCAGAACCCUAGCUGUAAUCACUAAACUUGAUCUCAUGGAUGCGGGUACUGAUGCCAUGGAUGUAUUG: 0.217 ratio
UAGUGAAUGGUUUCCCCAGUGUAUAUGAAUGUUUUAAGUGUCUCCAAUAGCUUAUGCAGUCUAGGAGCUUUCCAAUACUCAUUUAAUUAAGAUUUAAUCAUUUGCUAAUGGAAAUCUUAC: 0.566 ratio
AAAAACAGGCUGCCAGCAAACAGCCUUCCUCAGGAGGGAGAUGUAGUGUUGACGACAGUGCAAUUCUGGAUUGCCAGUUCAGUGAAUUUUAUCAUACUCCUCCACCUGGUUUUGAAAAAA: 0.208 ratio
CUUACAGUUGGUGGUAAGGCCUUUGGAAUGUUUGAAGGAACAGCAUAUGCCAUAUAUGAGCUGGCUGUGGCUUCAUUUCCCAAGAAGCAGGAGUGACUUCAGUCAUCCCAGCAAUCGCUU: 0.0595 ratio
AAUGCUAAAGGUAUAUCGUAAGGGUAGUGUUUGUUUUUGAACGAUAAUUUAGAAGUUCUCAUAGAAAGCGUAUAACAUAGGUCUUCAGAAACUAUAAAAGAAUUUUCAUAUAGUAUUAAA: 16.7 ratio
CCAAAGAAGAUACAGUUUGAAGACAGAAGUGUACUCUCUACAAUGCAAUUUACUGUACAGUUAGAAAGCAAAGUGUUAAAUGGAGAAGAUACUUGUUUUUAUUAAACAUUUUGAGAUUUA: 0.156 ratio
GGACAUGAUUUGAGGGUGGGAACCUCGCAAGUUGUGACCUCUUGUUAACUUGGUCCCCAGAUUAGUAGGCCUUGGCCUUUCCAGCUGCCUUCAGUGCUGCGUGUUUGGUUCUCAGUUGUA: 0.847 ratio
AAUGCUCUUAUAAACAAUACCAGAGGAAUUAUUUUUUACAGUGUCCCUCACCAUGGGUCACGUUUGGCUGAAUACUCCGUUAAUAUUCGAUAUCUUCUCUUUCCCUCACUGGAAGUCAAA: 0.443 ratio
AAGCAACACUAAGCAUUCAUAAGUUAACCCAUGGUAAAGAGUGUUUUUCUGAAACUUUUUUUUAGUAAGAUGGUUUUUCAGCAAAUGGCAUUCCCAAGAUAAAGCUGUUGUGCUUUAACU: 0.123 ratio

Sample 4 — technique: aptamer microarray, sandwich; molecule type: DNA with 2'F-ANA; sample: in vitro; concentration: 200 nM; with: Cy3 exosite-II aptamer, 400 nM; reading: higher = stronger binding; endpoint: mean fluorescence intensity; oligonucleotide: GGTTGGTGTGGTTGG
Target: Prothrombin, mature alpha-thrombin (F2, Homo sapiens, UniProt P00734)
Setting: whole 15-mer aptamer, many near background
2'F-ANA at 1 2 5 6 7 8 9 10 11: 51.3 a.u.
2'F-ANA at 2 3 4 5 6 7 8 13 15: 61.4 a.u.
2'F-ANA at 2 3 6 8 9 11: 804 a.u.
2'F-ANA at 2 3 4 6 7 8 9: 642 a.u.
2'F-ANA at 1 2 3 8 9 10: 89.6 a.u.
2'F-ANA at 1 2 5 8 9 11 14 15: 48 a.u.
2'F-ANA at 5 6 7 8 11 12 13 15: 94 a.u.
2'F-ANA at 1 3 5 8 11 13 14: 48.1 a.u.
2'F-ANA at 1 4 6 7 8 13 15: 94.1 a.u.
2'F-ANA at 1 2 4 5 6 10 12 13: 47.7 a.u.
2'F-ANA at 1 3 4 5 12 14 15: 54.9 a.u.
2'F-ANA at 2 3 4 8 13 14: 305 a.u.
2'F-ANA at 1 2 3 8 14: 84.6 a.u.
2'F-ANA at 1 2 5 8 10 11 12 13: 47.2 a.u.
2'F-ANA at 1 2 3 4 5 6 7 9 12 13 14 15: 49.1 a.u.
2'F-ANA at 2 4 11 13 14: 89.3 a.u.
2'F-ANA at 7 8 9 10 14 15: 120 a.u.

Excerpt of the above (sample 2):
GACGATTCCACTTTCGAGACGTGCTAG: 6.86 z-score
GGCGATCTCAGTCTCGAGACGTGCTAG: -0.385 z-score
TTAGGACTACTACTGCTTTAGTGCTAG: -0.114 z-score
TTAAGTTTCCTTATCCTTTAGTGCTAG: 1.87 z-score
TTAGAACTGGTGTTTCGATTAGTGCTA: 6.23 z-score
GACGAACTGAGTTTCGAGGCGTGCTAG: 3.64 z-score
TTAGAACTCAGTTTCGATTAGTGCTAG: 9.59 z-score
TTAGGTATCGGTATCGGGTAGTGCTAG: 8.18 z-score
